Published values of several laboratories.
Each line is one published result; not all experiments were run side by side. Values joined by “and” are separate records of one study, mostly repeats; a detail may differ. Numbers after ± are the reported error.
Sequence of UniProt P33261 (whole entry, looked up): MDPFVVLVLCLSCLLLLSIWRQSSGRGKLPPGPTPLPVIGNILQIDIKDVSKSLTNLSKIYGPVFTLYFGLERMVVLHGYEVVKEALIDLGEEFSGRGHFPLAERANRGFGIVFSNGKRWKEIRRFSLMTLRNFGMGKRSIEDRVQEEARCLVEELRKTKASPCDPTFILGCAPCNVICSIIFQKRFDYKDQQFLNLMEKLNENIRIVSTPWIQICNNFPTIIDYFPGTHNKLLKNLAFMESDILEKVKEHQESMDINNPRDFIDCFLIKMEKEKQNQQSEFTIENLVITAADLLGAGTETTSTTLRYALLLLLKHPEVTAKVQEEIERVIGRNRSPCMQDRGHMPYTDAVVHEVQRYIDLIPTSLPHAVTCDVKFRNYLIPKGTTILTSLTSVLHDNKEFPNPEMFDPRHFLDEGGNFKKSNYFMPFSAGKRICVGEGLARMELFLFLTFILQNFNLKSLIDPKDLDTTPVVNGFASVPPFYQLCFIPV

| SMILES | tested on | test | system | conditions | scale | endpoint | result |
| --- | --- | --- | --- | --- | --- | --- | --- |
| CC(C)(C)C(=O)OCOP(=O)(OCOC(=O)C(C)(C)C)C1CCCN(O)C1=O (stereo not shown) | KM12 | – | – | – | – | TGI | 13.3 µM |
| CS(=O)(=O)c1cc(Cl)cc(-c2cc(Cl)c(Cl)cc2Cl)c1Cl | – | ultrafiltration | cow milk whey | 20 nM nominal in whole milk | – | final permeate concentration | 0.53 nM |
| CC[C@H](C)[C@H](NC(=O)[C@H](CCCCN)NC(=O)CNC(=O)[C@H](CC(C)C)NC(=O)[C@H](Cc1ccccc1)NC(=O)[C@H](CCCCN)NC(=O)[C@H](CO)NC(=O)[C@H](Cc1ccccc1)NC(=O)[C@H](Cc1c[nH]c2ccccc12)NC(=O)[C@H](CCC(N)=O)NC(=O)[C@@H](NC(=O)[C@H](Cc1ccccc1)NC(=O)CCCCCNC(=O)CN1CCN(CC(=O)O)CCN(CC(=O)O)CCN(CC(=O)O)CC1)C(C)C)C(=O)N[C@@H](CCC(=O)O)C(=O)N1CCC[C@H]1C(=O)N[C@@H](CC(=O)O)C(=O)N[C@H](C(=O)N[C@@H](CO)C(=O)N[C@@H](CCC(N)=O)C(=O)N[C@H](C(=O)N[C@@H](CCC(N)=O)C(=O)N[C@@H](CC(=O)O)C(=O)N1CCC[C@H]1C(=O)N[C@@H](CC(N)=O)C(=O)N[C@@H](CC(=O)O)C(=O)N[C@@H](CCC(N)=O)C(=O)N[C@@H](Cc1ccc(O)cc1)C(=O)N[C@@H](CCC(=O)O)C(=O)N1CCC[C@H]1C(=O)N[C@@H](Cc1ccccc1)C(=O)O)C(C)C)C(C)C [copper-64 labelled] | – | dynamic PET | mouse, CT26 tumour, untreated, tumour | intravenous, 100 µCi/mouse, 1620 s | – | SUVmean | 0.72 SUV |
| Cc1nc2cccc(OCC(C)(C)C(=O)NC(C)C)c2c(N)c1C(=O)[O-].[Na+] | Salmonella typhimurium | Ames plate incorporation | TA1537 | 0.32 mg/plate, with: with rat liver S9 | – | revertant colonies | 14 ± 3 colonies/plate |
| CSCC[C@H](N)C(=O)N[C@@H](C)C(=O)N[C@@H](CCCNC(=N)N)C(=O)N[C@@H](CCCNC(=N)N)C(=O)N[C@@H](CC(=O)O)C(=O)N[C@@H](CCCCN)C(=O)N[C@H](C(=O)N[C@@H](CC(=O)O)C(=O)N[C@@H](Cc1ccccc1)C(=O)N[C@@H](C)C(=O)N[C@@H](CCCNC(=N)N)C(=O)N[C@@H](CCCNC(=N)N)C(=O)N[C@@H](CCCNC(=N)N)C(=O)N[C@@H](CCCNC(=N)N)C(=O)NCCCCCC(=O)NCCCCC(NC(=O)CCCCCNC(=O)[C@H](CCCNC(=N)N)NC(=O)[C@H](CCCNC(=N)N)NC(=O)[C@H](CCCNC(=N)N)NC(=O)[C@H](CCCNC(=N)N)NC(=O)[C@H](C)NC(=O)[C@H](Cc1ccccc1)NC(=O)[C@H](CC(=O)O)NC(=O)[C@@H](NC(=O)[C@H](CCCCN)NC(=O)[C@H](CC(=O)O)NC(=O)[C@H](CCCNC(=N)N)NC(=O)[C@H](CCCNC(=N)N)NC(=O)[C@H](C)NC(=O)[C@@H](N)CCSC)[C@@H](C)O)C(=O)NCCCCC(NC(=O)C(CCCCNC(=O)CCCCCNC(=O)[C@H](CCCNC(=N)N)NC(=O)[C@H](CCCNC(=N)N)NC(=O)[C@H](CCCNC(=N)N)NC(=O)[C@H](CCCNC(=N)N)NC(=O)[C@H](C)NC(=O)[C@H](Cc1ccccc1)NC(=O)[C@H](CC(=O)O)NC(=O)[C@@H](NC(=O)[C@H](CCCCN)NC(=O)[C@H](CC(=O)O)NC(=O)[C@H](CCCNC(=N)N)NC(=O)[C@H](CCCNC(=N)N)NC(=O)[C@H](C)NC(=O)[C@@H](N)CCSC)[C@@H](C)O)NC(=O)CCCCCNC(=O)[C@H](CCCNC(=N)N)NC(=O)[C@H](CCCNC(=N)N)NC(=O)[C@H](CCCNC(=N)N)NC(=O)[C@H](CCCNC(=N)N)NC(=O)[C@H](C)NC(=O)[C@H](Cc1ccccc1)NC(=O)[C@H](CC(=O)O)NC(=O)[C@@H](NC(=O)[C@H](CCCCN)NC(=O)[C@H](CC(=O)O)NC(=O)[C@H](CCCNC(=N)N)NC(=O)[C@H](CCCNC(=N)N)NC(=O)[C@H](C)NC(=O)[C@@H](N)CCSC)[C@@H](C)O)C(N)=O)[C@@H](C)O (stereo partly shown) | – | – | mouse C57BL/6 female, spine | 6 h, radioiodinated peptide | reference: total radioactivity | tissue distribution | 6.21% and 6.25% |
| CCCCCCCCCCCCCCCC(=O)N[C@@H](CCC(=O)NCCOCCOCCC(=O)NCCOCCOCCC(=O)NCCCC[C@H](NC(=O)[C@H](CC(=O)O)NC(=O)[C@H](CC(C)C)NC(=O)[C@H](Cc1ccc(O)cc1)NC(=O)[C@H](CCCCN)NC(=O)[C@H](CO)NC(=O)[C@H](Cc1ccc(O)cc1)NC(=O)[C@H](CC(=O)O)NC(=O)[C@H](CO)NC(=O)[C@@H](NC(=O)[C@H](Cc1ccccc1)NC(=O)[C@@H](NC(=O)CNC(=O)[C@H](CCC(N)=O)NC(=O)[C@@H](CO)NC(=O)[C@@H](N)Cc1c[nH]cn1)[C@@H](C)O)[C@@H](C)O)C(=O)N[C@@H](CCCNC(=N)N)C(=O)N[C@@H](CCCNC(=N)N)C(=O)N[C@@H](C)C(=O)N[C@@H](CCC(N)=O)C(=O)N[C@@H](CC(=O)O)C(=O)N[C@@H](Cc1ccccc1)C(=O)N[C@H](C(=O)N[C@@H](CCC(N)=O)C(=O)N[C@@H](Cc1c[nH]c2ccccc12)C(=O)N[C@@H](CC(C)C)C(=O)N[C@@H](CC(C)C)C(=O)N[C@@H](CC(N)=O)C(=O)N[C@H](C(=O)NCC(=O)NCC(=O)N1CCC[C@H]1C(=O)N[C@@H](CO)C(=O)N[C@@H](CO)C(=O)NCC(=O)N[C@@H](C)C(=O)N1CCC[C@H]1C(=O)N1CCC[C@H]1C(=O)N1CCC[C@H]1C(=O)N[C@@H](CO)C(N)=O)[C@@H](C)O)C(C)C)C(=O)O | – | measured: ALP | Sprague-Dawley rat, male | subcutaneous, 500 µg/kg once daily, 14 days | – | serum enzyme activity | 174 ± 38.7 U/L |
| Cc1cc(-c2ccc3ccccc3c2)nnc1NCCN1CCN(C)CC1 | Cytochrome P450 2C19 (CYP2C19, Homo sapiens, UniProt P33261) | substrate | recombinant enzyme | 100 nM | – | half-life | > 1 h |
| O=C1CC[C@H](N2Cc3cc(N4CCNCC4)ccc3C2=O)C(=O)N1 | – | radiolabelled compound | female SD rats | oral, 20 mg/kg, 0-168 h | reference: dose | faecal excretion | 21.1% |
| N=C(N)NCCC[C@H](NC(=O)[C@H](CCCNC(=N)N)NC(=O)[C@H](CCCNC(=N)N)NC(=O)[C@H](CCC(N)=O)NC(=O)[C@H](CCCNC(=N)N)NC(=O)[C@H](CCCNC(=N)N)NC(=O)[C@H](CCCCN)NC(=O)[C@H](CCCCN)NC(=O)[C@H](CCCNC(=N)N)NC(=O)CNC(=O)[C@H](Cc1ccc(O)cc1)NC(=O)[C@H](Cc1ccccc1)NC(=O)[C@H](Cc1ccccc1)NC(=O)[C@H](Cc1ccccc1)NC(=O)OCC1c2ccccc2-c2ccccc21)C(=O)O | – | – | C57BL/6 mice | intraperitoneal, 20 mg/kg, 12 h | direction not given | health score | 5 |
| COc1ccc(-n2cc(C(=O)N3C[C@]4(OC(=O)c5ccccc5NC(C)=O)CC[C@H](OC)[C@@]56[C@@H]4C[C@@H]([C@@H]35)[C@@]3(O)C[C@H](OC)[C@H]4C[C@@H]6[C@]3(O)[C@H]4OC)nn2)cc1 | – | – | Sprague-Dawley rat, plasma | intravenous, 2 mg/kg, 1 h | – | plasma concentration | 14 ng/mL |
| COc1ccccc1-c1n[nH]c2nc(NC3CCN(C(=O)Cc4ccc(F)cc4F)CC3)ncc12 | – | bead binding, competition bead pull-down, measured: LINJ.30.3000 | Leishmania donovani axenic amastigote extract | 10 µM | reference: vehicle | relative abundance | 1.03 |
| CC(=O)NCCCC[C@@H]1NC(=O)[C@H](Cc2c[nH]c3c(C)cccc23)NC(=O)[C@H]([C@@H](C)O)NC(=O)[C@H](CC(N)=O)NC(=O)[C@@H](NC(C)=O)C(C)(C)SSC(C)(C)[C@@H](C(=O)N[C@@H](Cc2ccc(OCCN)cc2)C(=O)N[C@@H](Cc2ccc3ccccc3c2)C(=O)NC2(C(=O)N[C@@H](CCC(=O)O)C(=O)N[C@@H](CC(N)=O)C(=O)N[C@@H](Cc3cccnc3)C(=O)N(C)CC(N)=O)CCOCC2)NC1=O | – | – | cynomolgus monkey, patellar synovium | intravenous, 1 mg/kg | – | tissue to plasma ratio | 100% |
| O=C1NC2(CC2)COc2ncc(F)cc2[C@H]2COCCN2c2ccn3ncc1c3n2 | – | – | Sprague-Dawley rat, female, brain | oral, 2.5 mg/kg/day, 4 weeks | – | organ weight | 1.96 ± 0.084 g |
| CN(C)[C@H]1C[C@@]23CC[C@@]4(O2)C(=CC[C@]2(C)[C@@H](c5ccc6ccncc6c5)CC[C@H]24)C=C3[C@@H](O)[C@@H]1O | Serine/threonine-protein kinase mTOR (MTOR, Homo sapiens, UniProt P42345) | – | – | 1 µM | – | inhibition | -2.4% |
| C#Cc1c(F)ccc2cc(O)cc(-c3ncc4c(N5CC6CCC(C5)N6C(=O)OC(C)OC(=O)C5CCOC5)nc(OC[C@@]56CCCN5C[C@H](F)C6)nc4c3F)c12 (stereo partly shown) | – | chemical stability | simulated intestinal fluid | 1 µM, 30 min | – | compound remaining | 83.5% |
| N=C(N)NCCC[C@@H](NC(=O)[C@H](N)Cc1c[nH]c2ccccc12)C(=O)N[C@H](CCCCN)C(=O)N[C@H](Cc1c[nH]c2ccccc12)C(=O)N[C@H](CCCNC(=N)N)C(=O)N[C@H](CCCCN)C(=O)N[C@H](Cc1c[nH]c2ccccc12)C(=O)N[C@H](CCCNC(=N)N)C(=O)N[C@H](CCCCN)C(=O)N[C@H](Cc1c[nH]c2ccccc12)C(=O)N[C@H](CCCNC(=N)N)C(=O)N[C@H](CCCCN)C(N)=O | – | – | mouse, heart | intravenous, 40 mg/kg single dose, 7 days | – | organ index | 0.495 |
| CN1Cc2cc(Cl)ccc2-n2c(nnc2C2CCN(c3cccc([18F])n3)CC2)C1 | – | – | C57BL/6 mouse male, testis | intravenous, 3.7 MBq, 15 min | – | tissue uptake | 0.97 ± 0.11 %ID/g |
| C=Cc1c(C)c2cc3nc(c(CC(=O)O)c4[nH]c(cc5nc(cc1[nH]2)C(C)=C5CC)c(C)c4C(=O)O)[C@@H](CCC(=O)NCCCC[C@H](NC(C)=O)C(=O)N[C@@H](Cc1ccccc1)C(=O)N[C@@H](Cc1ccccc1)C(=O)N[C@H](C(=O)N[C@@H](CC(C)C)C(=O)N[C@@H](CCCCN)C(=O)N[C@@H](CO)C(=O)NCC(=O)N[C@@H](CCC(N)=O)C(=O)N[C@@H](Cc1ccc(O)cc1)C(=O)N[C@@H](C)C(=O)N[C@@H](CO)C(=O)N[C@@H](Cc1ccc(O)cc1)C(=O)N[C@@H](Cc1c[nH]cn1)C(=O)N[C@@H](CS)C(=O)N[C@@H](Cc1c[nH]c2ccccc12)C(=O)N[C@@H](CS)C(=O)N[C@@H](Cc1c[nH]c2ccccc12)C(=O)N[C@@H](CCCNC(=N)N)C(=O)N[C@@H](CC(=O)O)C(=O)N1CCC[C@H]1C(=O)NCC(=O)N[C@@H](CCCNC(=N)N)C(=O)N[C@@H](CO)C(=O)NCC(=O)NCC(=O)N[C@@H](CO)C(=O)N[C@@H](CCCCN)C(N)=O)C(C)C)[C@@H]3C | – | – | mouse, blood | 12 h | – | blood concentration | 69200 ng/mL |
| CC(C)[C@@H]1NC(=O)CNC(=O)[C@H](CC(N)=O)NC(=O)[C@H](CCCNC(=N)N)NC(=O)[C@H](Cc2ccc(O)cc2)NC(=O)[C@H](C(C)C)NC(=O)[C@@H](NC(=O)[C@@H](NC(=O)[C@H](CC(N)=O)NC(=O)[C@H](Cc2c[nH]c3ccccc23)NC(=O)[C@H](C)NC(=O)[C@H](Cc2ccccc2)NC(=O)CNC(=O)[C@H](CCCCN)NC(=O)[C@H](Cc2ccccc2)NC(=O)[C@H](Cc2ccccc2)NC(=O)[C@H](CCCCN)NC(=O)OCC2c3ccccc3-c3ccccc32)C(C)C)CSSC[C@@H](C(=O)N[C@@H](Cc2c[nH]cn2)C(=O)N[C@@H](CCCNC(=N)N)C(=O)N[C@@H](CCCNC(=N)N)C(=O)N[C@@H](C)C(=O)N[C@@H](CC(N)=O)C(N)=O)NC(=O)[C@H](C(C)C)NC(=O)[C@H](CCCNC(=N)N)NC1=O | – | – | ICR mouse, blood | intramammary, 10 mg/kg, day 5, 3 d dosing | – | MCH | 13.8 ± 0.17 pg |
